Measured values of several laboratories.
Each line is one published result; not all experiments were run side by side.
Cell line: PC-3

C[C@]1([N+](=O)[O-])C(=O)c2ccc(F)cc2O[C@@H]1CC(=O)NC12CC3CC(CC(C3)C1)C2 — IC50 (cell growth or viability, SRB; 96 h): 3.03 µM
CNC(=O)c1cc(O[C@H]2CC[C@H](NC(=O)Nc3ccc(Cl)c(C(F)(F)F)c3)CC2)ccn1 — EC50 (cell growth or viability, MTT; 72 h): 7 µM
O=c1[nH]nc(O)c2c(-c3ccc([N+](=O)[O-])cc3)c3n(c12)CCn1cccc1-3 — IC50 (cell growth or viability, MTT; 48 h): 60.2 µM
COc1cc(CNC(=O)CCCC/C=C/C(C)C)ccc1OCc1cn(-c2cccc(Cl)c2)nn1 — growth percent (SRB; 10 µM, 48 h): 83.6%
C[C@]1(N)C(=O)c2cc(F)ccc2O[C@@H]1CC(=O)NC12CC3CC(CC(C3)C1)C2 — IC50 (cell growth or viability, SRB; 96 h): > 50 µM
COC(=O)c1c(-c2ccc(Br)cc2)c2n(c1C(=O)OC)CCn1cccc1-2 — IC50 (cell growth or viability, MTT; 48 h): 91.2 µM
COc1cc(CNC(=O)CCCC/C=C/C(C)C)ccc1OCc1cn(-c2ccccc2OC)nn1 — growth percent (SRB; 10 µM, 48 h): 73.5%
N#CC(=Cc1ccc([N+](=O)[O-])cc1)C(=O)Nc1nnc(NC(=O)c2ccccc2)s1 — IC50 (cell growth or viability, MTT; 48 h): 75.2 µM
COc1cc(CNC(=O)CCCC/C=C/C(C)C)ccc1OCc1cn(-c2ccc(C)c(C)c2)nn1 — growth percent (SRB; 10 µM, 48 h): 78.4%
C[C@]1([N+](=O)[O-])C(=O)c2ccccc2O[C@@H]1CC(=O)NCC1CCCCC1 — IC50 (cell growth or viability, SRB; 96 h): 43.9 µM
O=c1[nH]nc(O)c2c(-c3ccc(F)cc3)c3n(c12)CCn1cccc1-3 — IC50 (cell growth or viability, MTT; 48 h): 74.6 µM
C#C[C@@]1(O)[C@@H](CO)O[C@@H](n2cc(I)c3c(N)ncnc32)[C@@H]1O — GI50 (cell growth or viability, SRB; 48 h): 0.076 µM
COc1cc(CNC(=O)CCCC/C=C/C(C)C)ccc1OCc1cn(-c2ccc(F)cc2)nn1 — growth percent (SRB; 10 µM, 48 h): 84.1%
COc1cc(-c2c3n(c4c(=O)[nH]nc(O)c24)CCn2cccc2-3)ccc1O — IC50 (cell growth or viability, MTT; 48 h): 17.8 µM
CCNC(=O)C[C@H]1Oc2ccccc2C(=O)[C@]1(C)[N+](=O)[O-] — IC50 (cell growth or viability, SRB; 96 h): 9.35 µM
Cc1cccc(-c2c3n(c4c(=O)[nH]nc(O)c24)CCn2cccc2-3)c1 — IC50 (cell growth or viability, MTT; 48 h): 72.4 µM
C[C@]1([N+](=O)[O-])C(=O)c2ccccc2O[C@@H]1CC(=O)OCc1ccccc1 — IC50 (cell growth or viability, SRB; 96 h): 20.1 µM
COc1cc(-c2c3n(c4c(=O)[nH]nc(O)c24)CCn2cccc2-3)cc(OC)c1OC — IC50 (cell growth or viability, MTT; 48 h): 81.3 µM
COc1cc(CNC(=O)CCCC/C=C/C(C)C)ccc1OCc1cn(-c2cc(OC)c(OC)c(OC)c2)nn1 — growth percent (SRB; 10 µM, 48 h): 80.9%
CN(C(=O)C[C@H]1Oc2ccccc2C(=O)[C@]1(C)[N+](=O)[O-])C1CCCCC1 — IC50 (cell growth or viability, SRB; 96 h): > 50 µM

Excerpt of the above:
C#C[C@@]1(O)[C@@H](CO)O[C@@H](n2cc(I)c3c(N)ncnc32)[C@@H]1O — GI50 (cell growth or viability, SRB; 48 h): 0.076 µM
CN(C(=O)C[C@H]1Oc2ccccc2C(=O)[C@]1(C)[N+](=O)[O-])C1CCCCC1 — IC50 (cell growth or viability, SRB; 96 h): > 50 µM
